Experimental data collected from several papers.
Lines come from different studies, so protocols differ. Values joined by “and” are separate records of one study, mostly repeats; a detail may differ. ± marks the error that the study gave.
Cell line: Caco-2

The recovery of CC(C)CC(=O)OC[C@H]1O[C@@](C#N)(c2ccc3c(N)ncnn23)[C@H](O)[C@@H]1O is reported as 103% (bidirectional permeability; 9 µM, 120 min; apical to basolateral).
For C[n+]1ccc(-c2cc[n+](C)cc2)cc1, the viability was 41.4% and 39.7% and 49.8% and 37.3% and 52.2% (concentration not given; reference: untreated control).
For CC(C)NCC(O)COc1cccc2ccccc12 (stereo not drawn), “apparent permeability A-B” read 105 nm/s (human plasma; pH 7.4, not binding-corrected).
For C/C=C1/CN2CC[C@]34C(=C(C(=O)OC)[C@H]1C[C@H]23)Nc1ccccc14, the Papp was > 50 nm/s (10 µM, 2 h, pH 7.4).
COc1nc(NCc2cn(-c3ccc(C(=O)Nc4ccccc4)cc3)nn2)nc(OC)n1 has a selectivity ratio of 0.76 (MTT; reference: normal rat colonocytes over Caco-2).
CC[C@H](C)[C@H](NC(=O)[C@@H](N)CC(N)=O)C(=O)N1CCC[C@H]1C(=O)N1CCC[C@H]1C(=O)N[C@@H](CC(C)C)C(=O)N[C@H](C(=O)N[C@@H](CCC(N)=O)C(=O)N[C@H](C(=O)N1CCC[C@H]1C(=O)N[C@H](C(=O)N[C@H](C(=O)N[C@H](C(=O)N1CCC[C@H]1C(=O)N1CCC[C@H]1C(=O)N[C@@H](Cc1ccccc1)C(=O)N[C@@H](CC(C)C)C(=O)N[C@@H](CCC(N)=O)C(=O)N1CCC[C@H]1C(=O)N[C@@H](CCC(=O)O)C(=O)O)C(C)C)C(C)C)C(C)C)[C@@H](C)O)[C@@H](C)O has a recovery of 93.4 to 101% (10 µM, time not given, apical side).
O=C(CCCN1CCC2(CC1)C(=O)NCN2c1ccccc1)N(CC1CCCCC1)c1ccccc1 gave a recovery of 47.4% (Caco-2 permeability; time not given, apical to basolateral).
CC(C)[C@H]1C(=O)N[C@@H](CCCN=C(N)N)C(=O)NCC(=O)N[C@@H](CC(=O)O)C(=O)N[C@H](Cc2ccccc2)C(=O)N1C — result for “Papp A to B”: 0.96 nm/s (200 µM).
With NC(=O)CC[C@H](NC(=O)[C@@H]1CCCN1C(=O)[C@H](CCC(N)=O)NC(=O)[C@@H]1CCCN1C(=O)[C@@H](N)Cc1ccc(O)cc1)C(=O)O the viability was > 75% (CCK-8; 400 µM).
C/C=C1/CN2[C@@H]3C[C@@]45c6ccccc6N[C@]4(O3)[C@@H]2C[C@@H]1[C@@]5(COC(C)=O)C(=O)OC gave an efflux ratio of 1.3 (reference: B-A over A-B).
CCC[C@@](N)(CO)CCc1ccc(OCCCCCC(C)C)cc1 has an efflux ratio of > 4.48 (2 µM).
C[C@@H]1O[C@@H](OC[C@H]2O[C@@H](Oc3c(-c4ccc(O)c(O)c4)oc4cc(O)cc(O)c4c3=O)[C@H](O)[C@@H](O)[C@@H]2O)[C@H](O)[C@H](O)[C@H]1O gave a viability of 107% (CCK-8; 2.5 µM, 24 h).
For C[C@@H](NC(=O)[C@@H](C)NC(=O)[C@H](CCCCNC(=O)c1ccc(S(=O)(=O)F)cc1)NC(=O)c1ccc(S(=O)(=O)F)cc1)C(=O)O, the efflux ratio was 2.19 (10 µM; reference: B-A over A-B).
O=c1c(O[C@@H]2O[C@H](CO)[C@H](O)[C@H](O)[C@H]2O)c(-c2ccc(O)c(O)c2)oc2cc(O)cc(O)c12 has a viability of 92.1% (CCK-8; 10 µM, 24 h).
For C[C@]12CC[C@H]3[C@@H](CCC4=CC(=O)CC[C@@]43C)[C@@H]1CC[C@@H]2O, the mass balance was 69.5 ± 6.3% (60 min, apical to basolateral).
For COc1ccc2cc3[n+](cc2c1OC)CCc1cc2c(cc1-3)OCO2.O.[Cl-], the efflux ratio was > 2 (100 µg/mL, 2 h; reference: B-A over A-B).
With O=c1cc(-c2ccc(O)cc2)oc2c([C@@H]3O[C@H](CO)[C@@H](O)[C@H](O)[C@H]3O)c(O)cc(O)c12 the viability was 122% (CCK-8; 5 µM, 24 h).
For CN(C)c1ccc(N(Cc2cc(Cl)cs2)C(=O)Cc2cncc3cccc(O)c23)cc1, the CC50 was 67.6 µM (48 h).
